# Assay results from different studies.
# Compare with care: the assays were run in different laboratories. Numbers after ± are the reported error.
# UniProt P06276, sequence (whole entry, looked up): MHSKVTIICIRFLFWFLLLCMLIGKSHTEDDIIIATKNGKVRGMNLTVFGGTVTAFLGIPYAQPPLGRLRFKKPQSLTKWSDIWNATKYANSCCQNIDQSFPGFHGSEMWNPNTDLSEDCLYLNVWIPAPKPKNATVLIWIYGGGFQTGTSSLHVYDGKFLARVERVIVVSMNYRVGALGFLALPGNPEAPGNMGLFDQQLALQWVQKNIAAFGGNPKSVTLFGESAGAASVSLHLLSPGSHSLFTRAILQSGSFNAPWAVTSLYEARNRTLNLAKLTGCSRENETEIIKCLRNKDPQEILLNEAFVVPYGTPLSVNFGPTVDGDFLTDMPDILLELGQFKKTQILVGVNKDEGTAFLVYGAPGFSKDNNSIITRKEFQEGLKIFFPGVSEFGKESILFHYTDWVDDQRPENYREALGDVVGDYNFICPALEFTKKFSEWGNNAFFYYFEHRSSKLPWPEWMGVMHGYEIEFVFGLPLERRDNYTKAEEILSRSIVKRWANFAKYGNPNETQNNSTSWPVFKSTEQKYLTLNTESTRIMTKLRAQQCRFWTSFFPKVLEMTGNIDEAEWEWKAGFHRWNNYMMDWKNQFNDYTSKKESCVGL
Structure (SMILES),tested on,test,test system,setting,scale,measurement,value
COc1cccc2c1CCCC2CCCN1CCN(C2CCCCC2)CC1 (centres unmarked),,,"CD-1 mouse, male, lung","intraperitoneal, 3 mg/kg",,Tmax,15 min
CN1CC[C@@H](c2c(O)cc(O)c3c(=O)cc(-c4ccc(C(F)(F)F)cc4Cl)oc23)[C@@H]1CO,,refers to: Chills,relapsed or refractory haematological malignancies,"oral, dose not given, all arms",,patients with adverse event,10%
CC(=O)c1c(C)c2cnc(Nc3ccc(C4CCN(CCS(C)(=O)=O)CC4)cn3)nc2n(C2CCCC2)c1=O,,,HR+/HER2- advanced breast cancer patients,"oral, dose not given, grade 3 or 4",,platelet count decreased,1.2%
COCC/N=c1/scc(-c2cccs2)n1/N=C/c1cc(Br)c(O)c(OC)c1,"Gag-Pol polyprotein, integrase (gag-pol, Human immunodeficiency virus 1, UniProt P12497)","3'-processing activity, inhibitor",,wild-type integrase,,IC50,> 100 µM
COc1cc2c(Oc3ccc4[nH]c(C)cc4c3F)ccnc2cc1OCC1(N)CC1,,,paediatric recurrent refractory sarcoma,8 mg,,Hypothyroidism incidence,25%
CO[C@H]1C[C@@H]2CC[C@@H](C)[C@@](O)(O2)C(=O)C(=O)N2CCCC[C@H]2C(=O)O[C@H]([C@H](C)C[C@@H]2CC[C@@H](OC(=O)NCCOCCOCCOCCOCCOCCOCCOCCOCCC(=O)N3CCc4cc(Cn5nc(-c6ccc7oc(N)nc7c6)c6c(N)ncnc65)ccc4C3)[C@H](OC)C2)C[C@@H](O)[C@H](C)/C=C(\C)[C@@H](O)[C@@H](OC)C(=O)[C@H](C)C[C@H](C)/C=C/C=C/C=C/1C,,,patients with advanced solid tumours,"intravenous, 8 mg weekly, grade 3 or higher",,dyspnoea incidence,0%
CCNc1nc(N2CC(=O)Nc3cc(OC)ccc32)c2cccnc2n1,,,DPBS,"overnight, pH 7.4, room temperature",,aqueous solubility,23 to 25 µg/mL
CCN1[C@@H](C(=O)NC23CCC(C(=O)O)(CC2)CC3)[C@H](c2cccc(Cl)c2F)[C@]2(C(=O)Nc3cc(Cl)ccc32)C12CCCCC2,,,patients with advanced solid tumours,"oral, 150 mg",,Headache incidence,0%
CN(C)c1ccc(O)c2c1C[C@H]1C[C@H]3[C@H](N(C)C)C(O)=C(C(N)=O)C(=O)[C@@]3(O)C(O)=C1C2=O,Plasmodium falciparum,,7G8,,,IC50,3.98 µM
C[C@@H](NC(=O)N1C(=O)[C@H](Cc2ccnc(N)c2)[C@H]1C(=O)O)C1CCCCC1,,,healthy Chinese adult volunteers,"continuous intravenous infusion, dose not given, 5.0 days, CTCAE 5.0, all doses",,diarrhea,2.5%
CC(C)[C@@H]1NC(=O)CNC(=O)[C@H](CC(N)=O)NC(=O)[C@H](CCCNC(=N)N)NC(=O)[C@H](Cc2ccc(O)cc2)NC(=O)[C@H](C(C)C)NC(=O)[C@@H](NC(=O)[C@@H](NC(=O)[C@H](CC(N)=O)NC(=O)[C@H](Cc2c[nH]c3ccccc23)NC(=O)[C@H](C)NC(=O)[C@H](Cc2ccccc2)NC(=O)CN)C(C)C)CSSC[C@@H](C(=O)N[C@@H](Cc2cnc[nH]2)C(=O)N[C@@H](CCCNC(=N)N)C(=O)N[C@@H](CCCNC(=N)N)C(=O)N[C@@H](C)C(=O)N[C@@H](CC(N)=O)C(N)=O)NC(=O)[C@H](C(C)C)NC(=O)[C@H](CCCNC(=N)N)NC1=O,,,"ICR mouse, blood","intramammary, 10 mg/kg, day 5, 3 d dosing",,lymphocytes,75 ± 1.28%
Cc1cccc(S(=O)(=O)N2CCC[C@@H]2CCN2CCC(C)CC2)c1,"Cholinesterase (BCHE, Homo sapiens, UniProt P06276)",inhibitor,,,,IC50,3.71 ± 0.24 µM
Clc1ccc(-c2cc(Cl)c(Cl)cc2Cl)cc1Cl,,,polyethylene-water partitioning,PCB compilation,baseline: maximum over minimum K,literature range factor,3
CCCCC/C=C\C/C=C\CCCCCCCCC(CCCCCCCC/C=C\C/C=C\CCCCC)OC(=O)CCCN(C)C,,"refers to: IL-6, MCP-1, ALT, AST",BALB/c mice,"intravenous, 6 mg/kg siRNA, 6 h cytokines, 24 h ALT/AST, LNP formulation",,tolerability,not toxic
[Cl][212Pb][Cl],,,"athymic mice, C4-2 xenograft, stomach","intravenous, 2 h, 212Pb-labelled",,tissue uptake,0.39 ± 0.11 %ID/g
CCN(CC)CCOCCOC(=O)C1(c2ccccc2)CCCC1,Plasmodium falciparum,,7G8,,,IC50,3.98 µM
Clc1ccc(Cl)c(-c2cc(Cl)c(Cl)cc2Cl)c1,,,fresh water,"20 °C, S30-1 sampler, 30 µm",,log K(PDMS-water),5.98 ± 0.04

# Repeated from above:
Structure (SMILES),tested on,test,test system,setting,scale,measurement,value
COc1cccc2c1CCCC2CCCN1CCN(C2CCCCC2)CC1 (centres unmarked),,,"CD-1 mouse, male, lung","intraperitoneal, 3 mg/kg",,Tmax,15 min
CN1CC[C@@H](c2c(O)cc(O)c3c(=O)cc(-c4ccc(C(F)(F)F)cc4Cl)oc23)[C@@H]1CO,,refers to: Chills,relapsed or refractory haematological malignancies,"oral, dose not given, all arms",,patients with adverse event,10%
